Results pooled from the literature.
Each line is one published result; not all experiments were run side by side.

SMILES	target or system	test	test system	conditions	how to read	endpoint	result
O=C1c2c(O)ccc(O)c2C(=O)c2c(NCCNCCO)ccc(NCCNCCO)c21	Severe acute respiratory syndrome coronavirus 2	antiviral activity	Huh-7	96 h		EC50	> 100 µM
O[C@H]1[C@H]2c3cc4c(cc3CN3CCC(=C[C@@H]1O)[C@H]23)OCO4	Severe acute respiratory syndrome coronavirus 2	viral replication, inhibitor, qPCR	Vero C1008	24 h		EC50	0.439 µM
Nc1ncnc2c([C@@H]3N[C@H](CO)[C@@H](O)[C@H]3O)c[nH]c12	Nipah henipavirus	viral replication	HeLa, Malaysia	25 µM		inhibition	10.7%
CCc1c(C(=O)C(N)=O)c2c(OCC(=O)O)cccc2n1Cc1ccccc1		inhibitor	human platelet-poor plasma	100 µM, added: snake venom		prothrombin time	no inhibition
COc1ccc2c(O[C@@H]3C[C@H]4C(=O)N[C@]5(C(=O)NS(=O)(=O)C6CC6)C[C@H]5/C=C\CCCCN(C)C(=O)[C@@H]4C3)cc(-c3nc(C(C)C)cs3)nc2c1C	Severe acute respiratory syndrome coronavirus 2	viral replication, inhibitor	Vero C1008			EC50	15 µM
CC1=C[C@]23C(=O)[C@@H](C=C(CO)[C@@H](O)[C@]2(O)[C@H]1O)[C@H]1[C@@H](C[C@H]3C)C1(C)C	Severe acute respiratory syndrome coronavirus 2	viral replication	Vero C1008, USA_WA1/2020	72 h		EC50	0.06 µM
Cc1cc(-c2ccc(/N=N/c3ccc4c(S(=O)(=O)O)cc(S(=O)(=O)O)c(N)c4c3O)c(C)c2)ccc1/N=N/c1ccc2c(S(=O)(=O)O)cc(S(=O)(=O)O)c(N)c2c1O	Severe acute respiratory syndrome coronavirus 2	antiviral activity	Huh-7	96 h		EC50	< 50 µM
CC[C@H](C)[C@H](NC(=O)[C@H](CC(C)C)NC(=O)[C@H](Cc1c[nH]c2ccccc12)NC(=O)[C@H](CCC(N)=O)NC(=O)[C@@H](NC(=O)[C@H](Cc1ccccc1)NC(=O)[C@H](C)NC(=O)[C@H](CCCCNC(=O)COCCOCCNC(=O)COCCOCCNC(=O)CC[C@H](NC(=O)CCCCCCCCCCCCCCCCCCC(=O)O)C(=O)O)NC(=O)[C@H](CCC(N)=O)NC(=O)[C@H](C)NC(=O)[C@@H](NC(=O)[C@H](CCCCN)NC(=O)[C@H](CC(=O)O)NC(=O)[C@H](CC(C)C)NC(=O)C(C)(C)NC(=O)[C@@H](NC(=O)[C@H](CO)NC(=O)[C@H](Cc1ccc(O)cc1)NC(=O)[C@H](CC(=O)O)NC(=O)[C@H](CO)NC(=O)[C@@H](NC(=O)[C@H](Cc1ccccc1)NC(=O)[C@@H](NC(=O)CNC(=O)[C@H](CCC(=O)O)NC(=O)C(C)(C)NC(=O)[C@@H](N)Cc1ccc(O)cc1)[C@@H](C)O)[C@@H](C)O)[C@@H](C)CC)[C@@H](C)CC)C(C)C)C(=O)N[C@@H](C)C(=O)NCC(=O)NCC(=O)N1CCC[C@H]1C(=O)N[C@@H](CO)C(=O)N[C@@H](CO)C(=O)NCC(=O)N[C@@H](C)C(=O)N1CCC[C@H]1C(=O)N1CCC[C@H]1C(=O)N1CCC[C@H]1C(=O)N[C@@H](CO)C(N)=O		refers to: Diarrhoea	healthy subjects	5/5/8/10 mg titrated, multiple ascending dose		subjects with adverse events	28.6%
N#C[C@@]1(c2ccc3c(N)ncnn23)O[C@H](CO)[C@@H](O)[C@H]1O	Severe acute respiratory syndrome coronavirus 2	viral replication, inhibitor, qPCR	human	48 h		EC50	0.74 µM
CCC(CC)COC(=O)[C@H](C)N[P@](=O)(OC[C@H]1O[C@@](C#N)(c2ccc3c(N)ncnn23)[C@H](O)[C@@H]1O)Oc1ccccc1	Severe acute respiratory syndrome coronavirus 2	cytopathic effect, inhibitor				EC50	2.6 µM
COC(=O)c1c(NC(=O)c2cc3ccccc3o2)sc(C)c1C	Severe acute respiratory syndrome coronavirus 2	antiviral activity	Huh-7	96 h		EC50	> 100 µM
CCC(CC)COC(=O)[C@H](C)N[P@](=O)(OC[C@H]1O[C@@](C#N)(c2ccc3c(N)ncnn23)[C@H](O)[C@@H]1O)Oc1ccccc1	Severe acute respiratory syndrome coronavirus 2	viral replication, inhibitor, qPCR	human	48 h		EC50	0.14 µM
CC(C)N(CCC(=O)c1ccc2ccccc2c1)Cc1ccccc1	Severe acute respiratory syndrome coronavirus 2	antiviral activity	Huh-7	96 h		EC50	> 100 µM
CCN(CC)Cc1ccc(Nc2ccnc3cc(Cl)ccc23)cc1O	SARS-CoV-2	cytopathic effect	USA_WA1/2020	round 2, 5-point		maximum response	92.2%
COc1c(OCCCN2CCOCC2)ccc2c1N=C(NC(=O)c1cnc(N)nc1)N1CCN=C21	Severe acute respiratory syndrome coronavirus 2	viral replication	Vero C1008, USA_WA1/2020	72 h		EC50	> 20 µM
C[C@H](c1cccc2ccccc12)N1CCC(C(=O)NCc2cccc(-c3cn(Cc4nnc5c(F)cccn45)nn3)c2)CC1	Severe acute respiratory syndrome coronavirus 2	viral replication	hACE2-HeLa	48 h		EC50	0.38 µM
CCC[C@H](NC(=O)[C@@H]1[C@H]2CCC[C@H]2CN1C(=O)[C@@H](NC(=O)[C@@H](NC(=O)c1cnccn1)C1CCCCC1)C(C)(C)C)C(=O)C(=O)NC1CC1	Severe acute respiratory syndrome coronavirus 2	viral replication, inhibitor	Vero C1008			EC50	~40 µM
CCN1CCN(Cc2ccc(Nc3ncc(F)c(-c4cc(F)c5nc(C)n(C(C)C)c5c4)n3)nc2)CC1	Severe acute respiratory syndrome coronavirus 2	viral replication	Vero C1008, USA_WA1/2020	72 h		EC50	3.16 µM
COc1ccc2c(O[C@@H]3C[C@H]4C(=O)N[C@]5(C(=O)NS(=O)(=O)C6CC6)C[C@H]5/C=C\CCCCC[C@H](CC(=O)N5CCCC(F)(F)C5)C(=O)N4C3)cc(-c3nc(C(C)C)cs3)nc2c1C	Severe acute respiratory syndrome coronavirus 2	viral replication, inhibitor	Vero C1008			EC50	> 20 µM
Cn1cnc(Cn2c(=O)[nH]/c(=N\c3cc4cn(C)nc4cc3Cl)n(Cc3cc(F)c(F)cc3F)c2=O)n1	Severe acute respiratory syndrome coronavirus 2	viral replication, inhibitor	Vero C1008	24 h, replicon		EC50	0.06 µM
C=C[C@@H]1C[C@]1(NC(=O)[C@@H]1C[C@@H](Oc2ncc(OC)c3ccc(Cl)cc23)CN1C(=O)[C@@H](NC(=O)OC(C)(C)C)C(C)(C)C)C(=O)NS(=O)(=O)C1CC1	Severe acute respiratory syndrome coronavirus 2	viral replication, inhibitor	Vero C1008			EC50	72 µM
Cn1cnc(Cn2c(=O)[nH]/c(=N\c3cc4cn(C)nc4cc3Cl)n(Cc3cc(F)c(F)cc3F)c2=O)n1			human, moderate renal impairment	oral, 375 mg, hypertriglyceridaemia TEAE, Moderate severity		patients with adverse event	0%
CCN(CC)Cc1cc(Nc2ccnc3cc(Cl)ccc23)ccc1O	SARS-CoV-2	cytopathic effect, cell-based CPE	USA_WA1/2020	round 2, 5-point dilution		AC50	5.62 µM
Clc1cccc(/C=C/c2nn3c(-c4ccco4)nnc3s2)c1	Severe acute respiratory syndrome coronavirus 2	antiviral activity	Huh-7	96 h		EC50	> 100 µM
Cc1cccc(C)c1OCC(=O)N[C@@H](Cc1ccccc1)[C@@H](O)C[C@H](Cc1ccccc1)NC(=O)[C@H](C(C)C)N1CCCNC1=O	Severe acute respiratory syndrome coronavirus 2	cytopathic effect, inhibitor				EC50	7.77 µM
Cc1cnc(C(=O)N[C@H]2CCCCC/C=C\[C@@H]3C[C@@]3(C(=O)NS(=O)(=O)C3CC3)NC(=O)[C@@H]3C[C@@H](Oc4nc5ccccc5c5ccccc45)CN3C2=O)cn1	Severe acute respiratory syndrome coronavirus 2	viral replication, inhibitor	Vero C1008			EC50	22 µM
CNC(=O)[C@@H](NC(=O)[C@H](CC(C)C)[C@H](O)C(=O)NO)C(C)(C)C	Daboia russelii venom proteases (SVMP)	protease activity, inhibitor	KL population	0.001 µM, added: azocasein substrate	baseline: venom alone	remaining activity	100%

A few entries again:
SMILES	target or system	test	test system	conditions	how to read	endpoint	result
Clc1cccc(/C=C/c2nn3c(-c4ccco4)nnc3s2)c1	Severe acute respiratory syndrome coronavirus 2	antiviral activity	Huh-7	96 h		EC50	> 100 µM
Cc1cnc(C(=O)N[C@H]2CCCCC/C=C\[C@@H]3C[C@@]3(C(=O)NS(=O)(=O)C3CC3)NC(=O)[C@@H]3C[C@@H](Oc4nc5ccccc5c5ccccc45)CN3C2=O)cn1	Severe acute respiratory syndrome coronavirus 2	viral replication, inhibitor	Vero C1008			EC50	22 µM
CCc1c(C(=O)C(N)=O)c2c(OCC(=O)O)cccc2n1Cc1ccccc1		inhibitor	human platelet-poor plasma	100 µM, added: snake venom		prothrombin time	no inhibition
Cc1cccc(C)c1OCC(=O)N[C@@H](Cc1ccccc1)[C@@H](O)C[C@H](Cc1ccccc1)NC(=O)[C@H](C(C)C)N1CCCNC1=O	Severe acute respiratory syndrome coronavirus 2	cytopathic effect, inhibitor				EC50	7.77 µM
